Experimental data collected from several papers.
± gives the spread as reported.
Sequence of UniProt Q15370 (whole entry, looked up): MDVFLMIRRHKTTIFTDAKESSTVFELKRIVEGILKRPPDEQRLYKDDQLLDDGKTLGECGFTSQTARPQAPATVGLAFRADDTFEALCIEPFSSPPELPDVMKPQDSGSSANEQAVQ

For C[C@@H](O)[C@@H](CO)NC(=O)[C@@H](CCCNC(=N)N)NC(=O)[C@@H]1CCCN1C(=O)[C@@H]1CSSC[C@H](NC(=O)[C@H](Cc2ccccc2)NC(=O)CN2CCN(CC(=O)O)CCN(CC(=O)O)CCN(CC(=O)O)CC2)C(=O)N[C@@H](Cc2ccc(O)cc2)C(=O)N[C@@H](Cc2ccccc2)C(=O)N[C@@H](CCC(N)=O)C(=O)N[C@@H](CC(N)=O)C(=O)N1 [gallium-68 labelled], the tissue uptake was 0.07 %ID/g (Wistar rat, muscle; intravenous, 8 MBq, 120 min, group mean).
O=C(O)C[C@H](NC(=O)[C@H](CC(=O)O)NC(=O)[C@H](CC(=O)O)NC(=O)[C@H](CC(=O)O)NC(=O)[C@H](CC(=O)O)NC(=O)[C@H](CC(=O)O)NC(=O)[C@H](CC(=O)O)NC(=O)[C@H](CC(=O)O)NC(=O)[C@H](CC(=O)O)NC(=O)[C@H](CC(=O)O)NC(=O)[C@H](CC(=O)O)NC(=O)[C@H](CCCCNC(=O)c1ccc(C(=O)NCCOCCOB2BBBBBB3BBBB3B2)cc1)NC(=O)CN1CCN(CC(=O)O)CCN(CC(=O)O)CCN(CC(=O)O)CC1)C(=O)O [gallium-67 labelled] gave a tissue uptake of 2.98 %ID/g (ddY mice, male, blood; intravenous, 37 kBq, 10 min).
C[C@@H](O)[C@H](NC(=O)[C@@H]1CSSC[C@H](NC(=O)[C@@H](Cc2ccccc2)NC(=O)CN2CCN(CC(=O)[O-])CCN(CC(=O)[O-])CCN(CC(=O)[O-])CC2)C(=O)N[C@@H](Cc2ccc(O)cc2)C(=O)N[C@H](Cc2c[nH]c3ccccc23)C(=O)N[C@@H](CCCCN)C(=O)N[C@@H]([C@@H](C)O)C(=O)N1)C(=O)O.[177Lu+3] has a retention of 42.1% (MEC1 treated with 200 µM zebularine; gamma counter; 30 min efflux after 2 h loading).
With COc1cc(Nc2ncc(F)c(Nc3ccc4c(n3)NC(=O)C(C)(C)O4)n2)cc(OC)c1OC the IC50 was greater than 10 µM (NMDA receptor agonist site).
For CC[C@H](C)[C@H](NC(=O)[C@H](Cc1ccccc1)NC(=O)[C@H](CCC(=O)O)NC(=O)[C@H](CCCNC(=N)N)NC(=O)[C@H](C)NC(=O)[C@H](C)NC(=O)[C@H](CCC(N)=O)NC(=O)[C@H](CCC(=O)O)NC(=O)[C@H](CCC(=O)O)NC(=O)[C@H](CC(C)C)NC(=O)[C@H](Cc1ccc(O)cc1)NC(=O)[C@H](CO)NC(=O)[C@H](CO)NC(=O)[C@@H](NC(=O)[C@H](CC(=O)O)NC(=O)[C@H](CO)NC(=O)[C@@H](NC(=O)[C@H](Cc1ccccc1)NC(=O)[C@@H](NC(=O)CNC(=O)[C@H](CCC(=O)O)NC(=O)[C@H](C)NC(=O)CCc1c[nH]cn1)[C@@H](C)O)[C@@H](C)O)C(C)C)C(=O)N[C@@H](C)C(=O)N[C@@H](Cc1c[nH]c2ccccc12)C(=O)N[C@@H](CC(C)C)C(=O)N[C@H](C(=O)N[C@@H](CCCNC(=N)N)C(=O)NCC(=O)N[C@@H](CCCNC(=N)N)C(=O)N[C@@H](CCCCNC(=O)COCCOCCNC(=O)COCCOCCNC(=O)CC[C@H](NC(=O)CCCCCCCCCCCCCCCCC(=O)O)C(=O)O)C(=O)NCC(=O)NCC(=O)N[C@@H](CO)C(=O)N[C@@H](CCCCNc1c(NCCCCCN(O)C(=O)CCC(=O)NCCCCCN(O)C(=O)CCC(=O)NCCCCCN(O)C(C)=O)c(=O)c1=O)C(=O)O)C(C)C [zirconium-89 labelled], the tissue uptake was 0.04 %ID/g (gamma counting; rat, stomach-duodenum content; intravenous, 3 nmol/kg, 168 h).
For CCCCCCCCCC(=O)N[C@@H](Cc1c[nH]c2ccccc12)C(=O)N[C@H](CC(N)=O)C(=O)N[C@@H](CC(=O)O)C(=O)N[C@@H]1C(=O)NCC(=O)N[C@@H](CCCNC(=O)CCC(=O)N2Cc3ccccc3-c3c(nnn3CCC[C@H](NC(=O)CCCCC[N+]3=C(C=CC4=CC(=CC=C5N(C)c6ccccc6C5(C)C)CCC4)C(C)(C)c4ccccc43)C(=O)NCCCCNC(=O)CCC(=O)N3Cc4ccccc4-c4c(nnn4CCOCCOCCOCCNC(=O)CN4CCN(CC(=O)NCCNC(=O)c5cccc(O)c5O)CCN(CC(=O)NCCNC(=O)c5cccc(O)c5O)CCN(CC(=O)NCCNC(=O)c5cccc(O)c5O)CC4)-c4ccccc43)-c3ccccc32)C(=O)N[C@@H](CC(=O)O)C(=O)N[C@H](C)C(=O)N[C@@H](CC(=O)O)C(=O)NCC(=O)N[C@H](CO)C(=O)N[C@@H]([C@H](C)CC(=O)O)C(=O)N[C@@H](CC(=O)c2ccccc2N)C(=O)O[C@@H]1C, the fraction unbound was 0.503 (rapid equilibrium dialysis; human plasma; 1 µM, 2 h, 37 °C).
For COc1cc2c(Oc3ccc4[nH]c(C)cc4c3F)ccnc2cc1OCC1(N)CC1, “patients with grade 3 TBIL elevation” read 0% (paediatric refractory sarcoma patients; 8 mg/kg).
CC(C)C[C@@H]1NC(=O)[C@H](CC(C)C)NC(=O)[C@H](Cc2c[nH]c3ccccc23)NC(=O)[C@H](CO)NC(=O)[C@H](Cc2c[nH]c3ccccc23)NC(=O)[C@@H]2CCCN2C(=O)[C@H](CC(C)C)NC(=O)[C@H](Cc2c[nH]cn2)NC(=O)[C@@H]2CCCN2C(=O)[C@H](CC(N)=O)NC(=O)[C@H](C)NC(=O)[C@H](Cc2ccc(O)cc2)NC(=O)[C@H](CS)NC(=O)[C@H](CCCCNC(=O)CN2CCN(CC(=O)O)CCN(CC(=O)O)CCN(CC(=O)O)CC2)NC1=O [lutetium-177 labelled]: “total nuclear transformations” 2880 MBq-s (OLINDA dosimetry; BALB/c mice, kidney; 37 MBq, 7 days).
CC(C)C[C@H](NC(=O)C[C@H](O)[C@H](CC(C)C)NC(=O)[C@H](Cc1c[nH]cn1)NC(=O)CNC(=O)[C@@H](NC(=O)[C@H](C)NC(=O)[C@H](Cc1c[nH]c2ccccc12)NC(=O)[C@H](CCC(N)=O)NC(=O)[C@@H](Cc1ccccc1)NC(=O)CCNC(=O)CCSc1nnc(NCCC(=O)NCCC(=O)NCCCC[C@H](NC(=O)N[C@@H](CCC(=O)O)C(=O)O)C(=O)O)c2c1CCC1C(CC2)C1COC(=O)NCCNC(=O)CC[C@H](C(=O)O)N1CCN(CC(=O)O)CCN(CC(=O)O)CC1)C(C)C)C(N)=O (stereo partly drawn) [gallium-68 labelled] has a tissue uptake of 0.6 %ID/g (athymic NMRI nude mouse, colon; intravenous, 533 pmol, 2 h).
Under “incidence of nausea TRAE”, CO[C@H]1C[C@@H]2CC[C@@H](C)[C@@](O)(O2)C(=O)C(=O)N2CCCC[C@H]2C(=O)O[C@H]([C@H](C)C[C@@H]2CC[C@@H](OC(=O)NCCOCCOCCOCCOCCOCCOCCOCCOCCC(=O)N3CCc4cc(Cn5nc(-c6ccc7oc(N)nc7c6)c6c(N)ncnc65)ccc4C3)[C@H](OC)C2)C[C@@H](O)[C@H](C)/C=C(\C)[C@@H](O)[C@@H](OC)C(=O)[C@H](C)C[C@H](C)/C=C/C=C/C=C/1C is recorded as 44% (patients with advanced solid tumours; intravenous, dose not given, any grade).
The tissue uptake of CC(C)[C@@H]1NC(=O)[C@H](Cc2ccccc2)NC(=O)[C@@H]2NC(=O)[C@H](Cc3ccccc3)NC(=O)[C@@H]3CCCN3C(=O)CNC(=O)[C@H](Cc3ccccc3)NC(=O)[C@@H]3CNCCCC[C@@H](C(=O)O)NC(=O)[C@@H]4NC(=O)[C@H](CC(N)=O)NC(=O)CNC(=O)[C@H]([C@@H](O)C(=O)O)NC(=O)[C@H](CSC[C@@H](NC(=O)[C@H](CCC(N)=O)NC(=O)[C@H](CCCCNC(=O)c5ccc(NN)nc5)NC(=O)[C@@H](N)CS[C@H]4C)C(=O)N[C@@H](CS[C@H]2C)C(=O)N3)NC1=O [technetium-99m labelled] is reported as 0.54 ± 0.1 %ID/g (rat, saline control, spleen; intravenous, 2 h after tracer, tracer 2 h after reperfusion).
With C[C@H]1CN(c2n[nH]c3nc(N[C@H]4CC[C@H](NS(=O)(=O)CCC(F)(F)F)CC4)ncc23)CCO1 the remaining binding was 1.12 (Elongin-B (Homo sapiens, UniProt Q15370); Kinobeads competition, measured: TCEB2; 0.16 µM, unit not given; baseline: vehicle).

Some of these lines once more:
For CCCCCCCCCC(=O)N[C@@H](Cc1c[nH]c2ccccc12)C(=O)N[C@H](CC(N)=O)C(=O)N[C@@H](CC(=O)O)C(=O)N[C@@H]1C(=O)NCC(=O)N[C@@H](CCCNC(=O)CCC(=O)N2Cc3ccccc3-c3c(nnn3CCC[C@H](NC(=O)CCCCC[N+]3=C(C=CC4=CC(=CC=C5N(C)c6ccccc6C5(C)C)CCC4)C(C)(C)c4ccccc43)C(=O)NCCCCNC(=O)CCC(=O)N3Cc4ccccc4-c4c(nnn4CCOCCOCCOCCNC(=O)CN4CCN(CC(=O)NCCNC(=O)c5cccc(O)c5O)CCN(CC(=O)NCCNC(=O)c5cccc(O)c5O)CCN(CC(=O)NCCNC(=O)c5cccc(O)c5O)CC4)-c4ccccc43)-c3ccccc32)C(=O)N[C@@H](CC(=O)O)C(=O)N[C@H](C)C(=O)N[C@@H](CC(=O)O)C(=O)NCC(=O)N[C@H](CO)C(=O)N[C@@H]([C@H](C)CC(=O)O)C(=O)N[C@@H](CC(=O)c2ccccc2N)C(=O)O[C@@H]1C, the fraction unbound was 0.503 (rapid equilibrium dialysis; human plasma; 1 µM, 2 h, 37 °C).
